Values quoted from earlier work, collected from citations in different studies.
Each numbered part shows a few of the values that one paper quotes. ± marks the error that the study gave.

Set 1
Organism: SARS-CoV-2
Effect on: viral cytopathic effect
Cell line: Vero E6
Concentration: 20 µM
SMILES	inhibition
CN(C)[C@@H]1C(O)=C(C(N)=O)C(=O)[C@@]2(O)C(O)=C3C(=O)c4c(O)cccc4[C@@](C)(O)[C@H]3[C@H](O)[C@@H]12	-0.13%
O=c1c(O)c(-c2ccc(O)c(O)c2)oc2cc(O)ccc12	-0.12%
CCOc1ccc2nc3cc(N)ccc3c(N)c2c1	-0.13%

Further values, each from its own experiment
SMILES	tested on	assay	test system	conditions	measurement	result
Nc1nc(=S)c2ncn([C@@H]3O[C@H](CO)[C@@H](O)[C@H]3O)c2[nH]1	SARS-CoV-2	cytopathic effect	Caco-2	–	IC50	780 ± 140 nM
CC(C)C(=O)OCC(=O)[C@@]12O[C@H](C3CCCCC3)O[C@@H]1C[C@H]1[C@@H]3CCC4=CC(=O)C=C[C@]4(C)[C@H]3[C@@H](O)C[C@@]12C	SARS-CoV-2	viral replication, N protein immunofluorescence	–	–	IC50	4330 nM
Cn1cnc(Cn2c(=O)[nH]/c(=N\c3cc4cn(C)nc4cc3Cl)n(Cc3cc(F)c(F)cc3F)c2=O)n1	SARS-CoV-2	–	human	concentration not given, phase II/III clinical trial	viral shedding time	decreased
CC(C)(C)[C@H](NC(=O)C(F)(F)F)C(=O)N1C[C@H]2[C@@H]([C@H]1C(=O)N[C@H](C#N)C[C@@H]1CCNC1=O)C2(C)C	SARS-CoV-2	viral replication	Caco-2	–	EC90	300 ± 60 nM
COc1c(O)cc(CCN)c2c1SSSSS2	L1210	cell growth	–	previously reported	IC50	3100 nM

Repeated from above (further values, each from its own experiment):
SMILES	tested on	assay	test system	conditions	measurement	result
CC(C)(C)[C@H](NC(=O)C(F)(F)F)C(=O)N1C[C@H]2[C@@H]([C@H]1C(=O)N[C@H](C#N)C[C@@H]1CCNC1=O)C2(C)C	SARS-CoV-2	viral replication	Caco-2	–	EC90	300 ± 60 nM
